Results from different studies.
Each line is one published result; not all experiments were run side by side. Values joined by “and” are separate records of one study, mostly repeats; a detail may differ. ± gives the spread as reported.

Compound | test | test system | setting | how to read | endpoint | value
CNCc1ccc(-c2[nH]c3cc(F)cc4c3c2CCNC4=O)cc1 | refers to: any adverse event | human patients | oral, 600 mg twice daily, grade 4 | – | patients with adverse event | 7.7%
O=C(O)c1ccc(C(=O)Nc2cc(C3CC3)[nH]n2)cc1 | – | octanol/buffer | 67 µM, pH 7.4 | – | logD | -0.91
CC(C)(C(=O)N1CCOc2c(C#N)cncc2C1)C(F)F | refers to: chest discomfort | human | oral, 20 mg once daily, 14 days, multiple ascending dose | – | subjects with adverse event | 0%
Cn1cnc2c(F)c(Nc3ccc(Br)cc3Cl)c(C(=O)NOCCO)cc21 | population PK model | human, plasma | oral, first-order absorption model, fasted | – | absorption rate constant | 2.49 h⁻¹
C[C@H]1OC[C@H](c2ccc(-c3ccccn3)cc2)N[C@@H]1c1cccc(Cl)c1 | shake-flask, 1-octanol/buffer | – | pH 7.4 | – | logD | > 4.7
CCOc1c([C@H](C)n2nc(C)c3c(N)ncnc32)cc(Cl)c(F)c1[C@@H]1CNC(=O)C1 | – | patients, monotherapy | oral, 45 mg once daily, cycle 1 day 1 | – | Cmax | 4010 ± 1400 nM
O=C(O)CCCOc1ccc([18F])cc1-c1cc(-c2ccccc2C(F)(F)F)n(-c2ccccc2)n1 | gamma counting | male ddY mice, spleen | intravenous, 2.1 MBq, 1 min | – | radioactivity uptake | 0.22 ± 0.04 SUV
Oc1ccc(/C=C/c2cc(O)cc(O)c2)cc1 | – | rat, azoxymethane-injected, blood at sacrifice | 10 mg/kg | – | total cholesterol | 70 mg/dL and 75 mg/dL and 76 mg/dL
FC(F)(F)c1ccc(CNc2ccc(Cc3c[nH]c4ncc(Cl)cc34)cn2)cn1 | refers to: Fatigue | patients with advanced solid tumours | oral, dose not given, all grades, possibly related to drug | – | adverse event incidence | 59%
Cl.[2H]C([2H])([2H])CC(=O)c1cnc(NC(=O)C2CC2)cc1Nc1cccc(-c2ncn(C([2H])([2H])[2H])n2)c1OC | – | human, fed, multiple dose | oral, 30 mg twice daily, tablet, day 14, median | – | Tmax | 2.2 h
Cc1ccc([C@@H]2O[C@H](CO)[C@@H](O)[C@H](O)[C@H]2O)cc1Cc1ccc(-c2ccc(F)cc2)s1 | – | Japanese type 2 diabetes patients | 200 mg, day 4, 24 h urine collection | baseline: baseline | urinary calcium excretion change | -42.8 mg
Nc1c(CC(=O)O)cccc1C(=O)c1ccc(Br)cc1 | – | cynomolgus monkey, suspended hepatocytes | – | unbound, scaled in vitro | passive intrinsic clearance | 102 mL/min/kg
COc1cc2nccc(Oc3ccc(NC(=O)NC4CC4)c(Cl)c3)c2cc1C(N)=O | – | human liver microsomes | 30 min, pH 7.4 | – | Km | 27.8 µM
COc1cc2c(cc1OC)CN(CCc1ccc(NC(=O)c3cccc4c(=O)c5cccc(OC)c5[nH]c34)cc1)CC2 | – | Sprague Dawley rats, plasma | iv infusion, 0.09 mg/h/kg, 4 h | – | free plasma concentration | 0.52 ng/mL
CC[C@H](C)CCCCC(=O)N[C@@H](CCN)C(=O)N[C@H](C(=O)N[C@@H](CCN)C(=O)N[C@H]1CCNC(=O)[C@H]([C@@H](C)O)NC(=O)[C@H](CCN)NC(=O)[C@H](CCN)NC(=O)[C@H](CC(C)C)NC(=O)[C@@H](Cc2ccccc2)NC(=O)[C@H](CCN)NC1=O)[C@@H](C)O | – | mild renal insufficiency patients, urine | IV, 0.75 mg/kg, 0-12 h, arithmetic mean | – | cumulative urinary excretion | 0.643 mg
C[C@@H](c1ncncc1F)[C@](O)(Cn1cncn1)c1ccc(F)cc1F | – | human | oral, 200 mg, drug interaction trial | – | grade 1 TEAE | 9.1%
CN(CCC(=O)O)C(=O)c1ccc2c(c1)CC[C@@H]1[C@@H]2CC[C@]2(C)C(c3cncc(F)c3)=CC[C@@H]12 | – | premenopausal women with endometriosis pain, serum | 60 mg twice daily, end of treatment, completers, mean | – | direct bilirubin | 0.345 mg/dL
C[C@@H](N)C1CCN(S(=O)(=O)c2cccc3cnccc23)CC1 | – | healthy volunteers | 250 mg, fasted | – | participants with photophobia | 0%
O=C(OC(C(F)(F)F)C(F)(F)F)N1CCN(Cc2cccc(Oc3ccccc3)c2)CC1 | PET blocking study | rhesus monkey, brain THA | 0.1 mg/kg, compound pretreatment, with: [18F]T-401 tracer | – | Ktrans | 0.0008 min⁻¹
O=C(O)CN1CCCN2CCN(Cc3ccccc3)CCCN(CC1)Cc1cccc(n1)C2 | – | 64Cu complex | 12 h, pH 7.4, 37 °C, with: DOTA excess | – | intact complex | 96%
Cc1cn(-c2cc(NC(=O)c3ccc(C)c(Nc4nccc(-c5cccnc5)n4)c3)cc(C(F)(F)F)c2)cn1 | population PK model, bootstrap | human, both sexes, plasma | oral | – | secondary depot absorption rate constant | 0.141 h⁻¹
Cc1c(Cl)c(C)[n+]([O-])c(Cl)c1-c1noc(-c2cc(O)c(O)c([N+](=O)[O-])c2)n1 | refers to: Bloating | healthy Chinese subjects | oral, 100 mg, 4 days | – | adverse drug reaction incidence | 0%
CCOC(=O)N1C[C@@H](c2ccc(C(C)=O)cc2)N[C@@H](C(C)(C)C)C1 | shake-flask, 1-octanol/buffer | – | pH 7.4 | – | logD | > 4.7

Compound | test | test system | setting | how to read | endpoint | value
Cc1nc(-c2cnc(NC(C)C)n(C)c2=O)ccc1Oc1ccnc(-c2cnn(C)c2)c1 | – | rat (Sprague-Dawley, male), plasma | oral, 10 mg/kg | – | Vz | 1.02 L/kg
CCn1cc(C(=O)N2CCOCC2)c(=O)c2cc(NC3Cc4ccccc4C3)cnc21 | – | human, fed | oral suspension, 2000 mg single dose, median | – | Tmax | 6 h
CC#CC(=O)N1CCC[C@H]1c1nc(-c2ccc(C(=O)Nc3ccccn3)cc2)c2c(N)nccn12 | – | PBS | 100 µM, 23 h, pH 7.45, 37 °C, with: cysteine 10 mM | – | cysteine adduct formation | 98%
COc1cc(N2CCC3(CCN(C)CC3)CC2)ccc1Nc1ncc(Cl)c(Nc2ccccc2P(C)(C)=O)n1 | population PK model | human | oral, final model | – | V1/F | 348 L
CN(C(=O)C(C)(C)c1cc(C(F)(F)F)cc(C(F)(F)F)c1)c1cnc(N2C[C@H]3COCCN3C[C@H]2CO)cc1-c1ccc(F)cc1[14CH3] | refers to: total radioactivity | human, male, plasma | oral, 120 mg | – | last quantifiable time | 96 to 240 h
C[C@@]1(c2cc(NC(=O)c3ccc(C#N)cn3)ccc2F)C=CSC(N)=N1 | – | elderly humans, both sexes, plasma | oral, 3 mg single dose | – | dose-normalised AUC(0-inf) | 86.3 ng·h/mL
CNCCCN1c2ccccc2CC(O)c2ccccc21 (stereo not drawn) | reverse phase LC, C18 | acetonitrile gradient, 0.1% formic acid | converted from retention time | baseline: Valko CHI standards | chromatographic hydrophobicity index | 48.2
O=c1cc(-c2ccc(O)cc2)oc2c([C@@H]3OC[C@H](O)[C@H](O)[C@H]3O)c(O)c([C@@H]3O[C@H](CO)[C@@H](O)[C@H](O)[C@H]3O)c(O)c12 | UHPLC-MS/MS | C57BL/6J mouse, spleen | oral, dose not given | – | tissue concentration | 0.23 ng/g
N#Cc1ccc2c(c1)[C@H]1CCCN(C(=O)c3ccc4[nH]cnc4c3)[C@H]1C2 | – | human | 10 mg, day 15 | – | median ACTH level | 4.2 pmol/L
FC(F)(F)c1cc(Nc2ncnc3ccc(-c4cccc(N5CCOCC5)c4)cc23)ccc1Cl | – | human liver microsomes | – | – | CLint | 26 µL/min/mg
CC(C)(C)c1ccc([C@@H]2COC[C@H](C3CCCCC3)N2)cc1 | shake-flask, 1-octanol/buffer | – | pH 7.4 | – | logD | > 4.7
O=C(N[C@H](Cc1c[nH]c2ccccc12)C(=O)Nc1ccncc1)c1ccc(-c2cc(C(F)(F)F)ccc2F)cc1F | – | Swiss Webster mouse, female, brain | oral, 50 mg/kg, 8 h, 20% HPβCD vehicle | – | concentration | 160 nM
NC(=O)N1c2ccccc2C=Cc2ccccc21 | refers to: psychiatric disorders (SOC) | human male | oral, dose not given, CTCAE on-treatment AEs | – | adverse events incidence | 0%
CCN1/C(=C/C(C)=O)Sc2ccc(F)cc21 | – | cynomolgus monkey | oral, 30 mg/kg, 2 h post-dose | – | diastolic blood pressure | 75 ± 3 mmHg
CC(C)NCCCC[C@@H]1NC(=O)[C@H](Cc2ccc(O)cc2)NC(=O)[C@H](Cc2ccccc2)NC(=O)CC[C@H](C(=O)N[C@@H](CCCCNC(C)C)C(=O)N[C@@H](CCCCNC(=O)[C@H](CCC(=O)O)NC(=O)[C@H](CCC(=O)O)NC(=O)[C@H](CCC(=O)O)NC(=O)CN2CCN(CC(=O)O)CCN(CC(=O)O)CCN(CC(=O)O)CC2)C(N)=O)NC(=O)CNC(=O)[C@H](Cc2ccc3ccccc3c2)NC(=O)[C@@H](CCCNC(=N)N)NC1=O [gallium-68 labelled] | – | mouse with Daudi xenograft, spleen | intravenous, 1 h | – | tissue uptake | 0.47 %ID/g
O=C(Nc1nc2cccc(-c3ccc(CN4CCS(=O)(=O)CC4)cc3)n2n1)C1CC1 | refers to: chills | human rheumatoid arthritis patients | oral, 300 mg once daily, 4 weeks, regardless of relatedness | – | treatment-emergent adverse events | 5%
Cc1cc(NC2CCN(C(=O)OC3CCN(C(=O)/C=C/CN(C)C)C3)CC2)n2ncc(C(C)C)c2n1 (stereo not drawn) | Phase I dose escalation CTCAE v4.0, refers to: back pain | patients with advanced solid tumours | dose not given, QD dosing grade 3 or higher | – | patients with adverse event | 0%
COc1ccc(-n2c(SCC(N)=O)nnc2-c2cccs2)cc1 | – | octanol/buffer | pH 7.4 | – | logD | 1.76
C=CC(=O)NC1CCN(c2ncc3ncnc(Nc4ccc(Oc5ccc6c(c5)ncn6C)c(C)c4)c3n2)CC1 | – | healthy male volunteers | oral, 60 mg, 2 weeks | – | subjects with drug-related adverse events | 13%
COc1ccc(NC(=O)N2CCCCN3[C@H](COCCC(=O)O)[C@H](c4ccc(C#Cc5ccccc5)cc4)[C@@H]3C2)cc1 | – | CD-1 mouse | oral, dose not given | – | oral bioavailability | 63%
CC(C)c1nc(N(C)S(C)(=O)=O)nc(-c2ccc(F)cc2)c1/C=C/[C@@H](O)C[C@@H](O)CC(=O)O | – | EpiIntestinal microtissues | 5 µM, 2 h, no inhibitor | – | efflux ratio | 10.3
Cc1cc(-c2nccc3c2ccn3CC(=O)Nc2ccc(-c3cnccn3)cn2)ccn1 | – | human | 20 mg once daily, multiple ascending dose | – | musculoskeletal disorders | 0%
